Measurements from different studies.
Each numbered part is a random draw from the data of one study; scales do not carry over between parts.
Sequence of UniProt Q14012 (whole entry, looked up): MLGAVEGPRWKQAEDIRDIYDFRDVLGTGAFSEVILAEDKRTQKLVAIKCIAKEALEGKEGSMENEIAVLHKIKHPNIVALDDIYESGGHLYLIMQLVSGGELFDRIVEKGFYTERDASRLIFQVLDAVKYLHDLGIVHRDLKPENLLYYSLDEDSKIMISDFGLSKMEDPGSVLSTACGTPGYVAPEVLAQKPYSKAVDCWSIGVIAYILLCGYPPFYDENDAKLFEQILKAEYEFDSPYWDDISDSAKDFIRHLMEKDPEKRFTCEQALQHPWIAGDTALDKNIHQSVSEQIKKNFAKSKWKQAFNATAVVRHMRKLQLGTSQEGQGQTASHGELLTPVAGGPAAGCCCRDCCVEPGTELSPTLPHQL

Block 1 — technique: RNA Bind-n-Seq; molecule type: RNA; sample: in vitro; concentration: not given; notes: RNA with constant flanks, ends assumed; reference: input RNA pool; direction: higher = stronger binding
Target: RING finger protein unkempt homolog, zinc fingers 1-6, GST-SBP tag (UNK, Homo sapiens, UniProt Q9C0B0, residues 30-357)
All sequences stand within: GGGAGUUCUACAGUCCGACGAUC … CAACAGAGGAUUGAGCAUCA
Construct (chain): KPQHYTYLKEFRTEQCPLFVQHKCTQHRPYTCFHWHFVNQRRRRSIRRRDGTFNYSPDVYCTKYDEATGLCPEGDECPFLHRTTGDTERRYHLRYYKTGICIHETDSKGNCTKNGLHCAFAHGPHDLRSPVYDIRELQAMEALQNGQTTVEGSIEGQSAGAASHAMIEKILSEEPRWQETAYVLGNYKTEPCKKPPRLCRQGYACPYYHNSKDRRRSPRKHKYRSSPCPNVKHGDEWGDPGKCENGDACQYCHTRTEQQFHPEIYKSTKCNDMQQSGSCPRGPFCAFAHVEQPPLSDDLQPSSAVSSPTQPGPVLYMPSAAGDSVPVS
Oligonucleotide | bound/input enrichment [ratio]
AAUGUGGAACUAAGUUCGCUGGCCCGGCUUCCCAGCUUAAAUAAACUUCGAAAAUUGGAGCUCCGUGAUAAUAUAAUUUCUGGAGGCUUGGAAGUCCUGGCAGAGAAAUGUCCAAAUCUU | 0.0862
ACUAACAAAAGUGCCUCAUCAUAAAAAUACAGUUGGUUUUUAGGGUGCCAUAUUGUUAAAAUCCGAUAACUUACUUACAUUGAAUAAACGAAUGCGUUUUAUUGGUAACAGAUAUCAUUA | 0.147
AAUCACUUUGAAAUCCUCCCUCCUGAACUGGGUGACUGUCGGGCUCUGAAGCGAGCUGGUUCCGUUGCCGAAGAUGCUCUGUUUGAAACUCUGCCUUCUGACGUCCGGGAGCAAAUGAAA | 0.335
UCCUUGGACCCCAGUCAUAUAGGUGACCUGCAAAAAGCAGACACCAGUAGUCAAGGUGCUUCCGUGUUUCUCUCAAAGGACUACGAAAUAGAAAAUCAAAAUCCCCUGGCCUCUCCUACG | 1
AGAUUCAAACCUGUGGUACCAUGGCCUCAUGUUGAAGGAGUAGAAGUGGACUUAGAGUCUAUCCGAAGAAAAAACAAAGCCAAAAAUGAACAGGAGCGCCAUGCUGGAGGAGAUUCCCAG | 0.64
GGCGCCUUUGCUUUGCCCAUUCUAAACGCACUGCUGGAGACCCCGCAGCGUUUGUUUGCCCCCGUUCUUACCCCGACUCGGGAGCUGGCCUUUCAGAUCUCAGAGCAGUUUGAAGCCCUG | 0.155
AAAGUCUUUGGAGGCACUGUGCAUAAAAAAAGUGUUAGAGAGGAUGGAGUUUUCAACAUCCGUAUGGAUAAUACGUGUUCAUUAUUCAGGGGCCUGCAGAAGGAAGAAAUUGUUUUACUU | 0.154
UGCUACCAGACACUGACAGAAAUGCCUAUCAGGUGUGAGCUCUUUGACCAGAACCUGAAGCCCGCUCUGGAGGUGGCAGAGAAGGCUGGAACUUUUGGACCUGGGUCAUAGGCUGAACCU | 0.14

Block 2 — technique: protein binding microarray; molecule type: double-stranded DNA, one strand shown; sample: in vitro; concentration: not given; reference: not given; direction: higher = stronger binding
Target: Histone acetyltransferase KAT6A, winged helix 1, GST fusion (KAT6A, Homo sapiens, UniProt Q92794, residues 1-85)
Notes: 8-mer, flanks averaged, mean of 2 arrays, mostly near background
Target sequence (chain): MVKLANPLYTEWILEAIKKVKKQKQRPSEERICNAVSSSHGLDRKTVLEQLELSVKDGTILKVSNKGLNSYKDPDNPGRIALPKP
Oligonucleotide | E-score
CGCCTCTC | -0.0317
CTAGCACA | -0.0331
CCGCATAA | 0.213
CCCTTTCG | -0.00732
CCTGCGAG | 0.0633
GAGTCATC | -0.04
ACAATCGG | 0.133
AACTGCCT | -0.217

Block 3 — technique: universal PBM; molecule type: double-stranded DNA, one strand shown; sample: in vitro; concentration: 600 nM; direction: higher = stronger binding
Target: Sal-like protein 4, full length isoform A (SALL4, Homo sapiens, UniProt Q9UJQ4, residues 1-1053)
Sequence of UniProt Q9UJQ4 (whole entry, looked up): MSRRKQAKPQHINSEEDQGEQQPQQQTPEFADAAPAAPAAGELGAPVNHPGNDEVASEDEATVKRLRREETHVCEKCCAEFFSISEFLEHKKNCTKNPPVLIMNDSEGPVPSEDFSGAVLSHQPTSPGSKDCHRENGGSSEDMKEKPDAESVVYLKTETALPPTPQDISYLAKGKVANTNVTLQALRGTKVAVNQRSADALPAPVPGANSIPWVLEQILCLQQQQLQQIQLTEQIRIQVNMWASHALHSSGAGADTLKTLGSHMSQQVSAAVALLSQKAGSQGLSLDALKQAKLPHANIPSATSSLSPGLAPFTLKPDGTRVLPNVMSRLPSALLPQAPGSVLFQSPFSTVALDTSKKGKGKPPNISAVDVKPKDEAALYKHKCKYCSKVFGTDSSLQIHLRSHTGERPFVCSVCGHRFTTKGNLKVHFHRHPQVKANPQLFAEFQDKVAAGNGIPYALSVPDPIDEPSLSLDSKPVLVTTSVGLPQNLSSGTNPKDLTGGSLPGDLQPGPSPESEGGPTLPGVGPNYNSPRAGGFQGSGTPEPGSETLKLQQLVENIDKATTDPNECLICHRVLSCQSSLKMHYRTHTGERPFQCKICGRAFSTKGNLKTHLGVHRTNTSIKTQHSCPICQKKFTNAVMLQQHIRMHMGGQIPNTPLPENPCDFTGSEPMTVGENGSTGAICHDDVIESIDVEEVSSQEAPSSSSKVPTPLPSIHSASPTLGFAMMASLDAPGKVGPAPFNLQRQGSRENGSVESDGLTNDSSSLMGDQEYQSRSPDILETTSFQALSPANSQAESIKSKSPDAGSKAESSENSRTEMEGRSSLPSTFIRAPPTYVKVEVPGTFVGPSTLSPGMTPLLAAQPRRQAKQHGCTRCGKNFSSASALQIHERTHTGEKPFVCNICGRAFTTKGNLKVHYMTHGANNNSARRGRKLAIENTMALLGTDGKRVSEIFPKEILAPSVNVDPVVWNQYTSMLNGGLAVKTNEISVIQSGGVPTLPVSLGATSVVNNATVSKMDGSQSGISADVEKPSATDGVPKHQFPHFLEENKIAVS
Notes: 8-mer, flanks averaged, mean of replicates
Oligonucleotide | E-score
AATGTCGC | -0.0952
ACCTAGGG | -0.126
GTAATCTA | 0.276
CCCGGCCA | -0.359
ACGCACCT | -0.134
CAGCACTA | -0.131
ATTCTCTG | 0.0643
ACGTAGCG | -0.181

Mixed results
SMILES | target | assay | setting | scale | quantity | result
CC[n+]1c(/C=C/N(C)c2ccccc2)n(-c2ccccc2)c2ccc(-c3nc4ccccc4s3)cc21 | Calcium/calmodulin-dependent protein kinase type 1 (CAMK1, Homo sapiens, UniProt Q14012) | enzyme activity, inhibitor | 0.5 µM | reference: control | remaining activity | 94.4%

Some of these lines once more (block 1):
Oligonucleotide | bound/input enrichment [ratio]
UCCUUGGACCCCAGUCAUAUAGGUGACCUGCAAAAAGCAGACACCAGUAGUCAAGGUGCUUCCGUGUUUCUCUCAAAGGACUACGAAAUAGAAAAUCAAAAUCCCCUGGCCUCUCCUACG | 1
AGAUUCAAACCUGUGGUACCAUGGCCUCAUGUUGAAGGAGUAGAAGUGGACUUAGAGUCUAUCCGAAGAAAAAACAAAGCCAAAAAUGAACAGGAGCGCCAUGCUGGAGGAGAUUCCCAG | 0.64
UGCUACCAGACACUGACAGAAAUGCCUAUCAGGUGUGAGCUCUUUGACCAGAACCUGAAGCCCGCUCUGGAGGUGGCAGAGAAGGCUGGAACUUUUGGACCUGGGUCAUAGGCUGAACCU | 0.14
ACUAACAAAAGUGCCUCAUCAUAAAAAUACAGUUGGUUUUUAGGGUGCCAUAUUGUUAAAAUCCGAUAACUUACUUACAUUGAAUAAACGAAUGCGUUUUAUUGGUAACAGAUAUCAUUA | 0.147
